Measurements gathered from unrelated publications.
Lines come from different studies, so protocols differ. Converted amounts (≈) assume the structure as drawn.

`Cc1ccc2c(c1)nc(CCc1cccc3cccnc13)n2-c1ccccc1` has a compound remaining of 0.19% (metabolic stability; rat, liver microsomes; 1.5 µM, 10 min).
`COc1ccc2c(=O)n(C)c(-c3ccccc3)nc2c1` gave a concentration of 25.9 ng/g (male Sprague-Dawley rat, spleen; oral, 30 mg/kg, 2 h, single dose).
`Cn1nc2c(=O)n(C3CC3)ccc2c1[C@](O)(c1ccc(F)c(Cl)c1)C(F)(F)F` has a kinetic solubility of 20 to 40 µM (≈ 8.32 to 16.6 µg/mL) (nephelometry; aqueous buffer; 30 min, pH 6.5).
`Cc1nc(-c2cnc(NC(C)C)n(C)c2=O)ccc1Oc1ccnc(-c2cnn(C)c2)c1` has a Tmax of 6 h (female mouse, plasma; oral, 3.75 mg/kg, single dose).
With `CCOC(=O)[C@@]12C[C@@H]1[C@@H](n1ccc3c(NC)nc(C#Cc4ccc(Cl)s4)nc31)[C@H](O)[C@@H]2O` the concentration was 5.76 ng/mL (male Sprague-Dawley rat, plasma; intravenous, 0.5 mg/kg, 2 h).
For `CCn1cnc2c([C@@](O)(CC)c3ccc(C(F)(F)F)nc3)n(C)nc2c1=O`, the kinetic solubility was greater than 80 µM (nephelometry; aqueous buffer; 30 min, pH 6.5).
`O=C(c1ccc(F)cc1)C1CCN(CCn2c(=O)[nH]c3ccccc3c2=O)CC1` has a compound remaining of 37.7% (metabolic stability; monkey, liver microsomes; 30 min).
`Cc1noc(C)c1Cn1cc(N2C(=O)CN(Cc3cccc(O)c3)C2=O)cn1` has a concentration of 15.2 ng/mL (male Sprague-Dawley rat, plasma; oral, 100 mg/kg, 8 h).
`COc1ccc([C@@H](O)c2cc(-c3ncnc4cc(N5CCOCC5)ccc34)c(F)cc2Cl)nn1` has a Tmax of 1.06 h (human, plasma; oral, 100 mg, single dose, patients).
With `CCn1cc(C2CC2)c2c(CN3CCC(F)(F)CC3(C)C)n(C)nc2c1=O` the kinetic solubility was 40 to 80 µM (≈ 15.1 to 30.3 µg/mL) (nephelometry; aqueous buffer; 30 min, pH 6.5).
With `COc1cccc(-c2n[nH]c(SCc3ccccn3)n2)c1OC` the concentration was 98300 ng/mL (female Sprague-Dawley rat, plasma; oral, 100 mg/kg, 30 min, single dose).
`CCn1cc(C2CC2)c2c([C@H](O)c3ccc(C(F)(F)F)nc3)n(C)nc2c1=O` has a kinetic solubility of 160 to 320 µM (≈ 62.8 to 126 µg/mL) (nephelometry; aqueous buffer; 30 min, pH 6.5).
With `O=C1CC[C@H](N2Cc3cc(N4CCN(CC5CCN(c6ccc([C@@H]7c8ccc(O)cc8CC[C@@H]7c7ccccc7)cc6)CC5)CC4)ccc3C2=O)C(=O)N1` the Vd was 2.83 L/kg (male Sprague-Dawley rat, plasma; intravenous, 5 mg/kg, fed).
With `Cn1nc2c(=O)n(C3CC3)cc(C3CC3)c2c1Cc1ccc(C(F)(F)F)nc1` the kinetic solubility was 65 to 130 µM (≈ 25.2 to 50.5 µg/mL) (nephelometry; aqueous buffer; 30 min, pH 6.5).
The Tmax of `Cc1c(C(=O)O)ccc2c3n(nc12)[C@@H]1[C@H](C3)N(CC2CC2)[C@@]2(C(=O)Nc3cc(Cl)ccc32)[C@H]1c1cccc(Cl)c1F` is reported as 2.3 h (female minipig, plasma; oral, 2 mg/kg).
